Measurements from different studies.
Lines come from different studies, so protocols differ. Numbers after ± are the reported error.
DCN1-like protein 1: DCN1-like protein 1 (Homo sapiens, UniProt Q96GG9)
Sequence of UniProt Q96GG9 (whole entry, looked up): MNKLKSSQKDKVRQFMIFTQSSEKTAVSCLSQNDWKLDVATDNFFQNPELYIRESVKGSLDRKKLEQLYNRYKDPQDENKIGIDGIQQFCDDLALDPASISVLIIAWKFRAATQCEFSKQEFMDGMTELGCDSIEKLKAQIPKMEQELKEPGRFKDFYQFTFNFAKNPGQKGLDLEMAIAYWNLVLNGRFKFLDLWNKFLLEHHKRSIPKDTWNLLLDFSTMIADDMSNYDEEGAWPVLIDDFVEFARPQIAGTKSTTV
GLP1R: Glucagon-like peptide 1 receptor (GLP1R, Homo sapiens, UniProt P43220)
Sequence of UniProt O95983 (whole entry, looked up): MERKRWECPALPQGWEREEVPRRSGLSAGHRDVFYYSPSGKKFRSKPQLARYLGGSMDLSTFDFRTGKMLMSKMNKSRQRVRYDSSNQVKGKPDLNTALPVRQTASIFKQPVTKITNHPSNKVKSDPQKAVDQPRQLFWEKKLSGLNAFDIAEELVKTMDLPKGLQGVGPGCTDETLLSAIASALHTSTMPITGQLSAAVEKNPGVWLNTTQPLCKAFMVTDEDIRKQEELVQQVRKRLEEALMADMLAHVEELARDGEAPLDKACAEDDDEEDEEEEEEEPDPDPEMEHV
Sequence of UniProt Q08881 (whole entry, looked up): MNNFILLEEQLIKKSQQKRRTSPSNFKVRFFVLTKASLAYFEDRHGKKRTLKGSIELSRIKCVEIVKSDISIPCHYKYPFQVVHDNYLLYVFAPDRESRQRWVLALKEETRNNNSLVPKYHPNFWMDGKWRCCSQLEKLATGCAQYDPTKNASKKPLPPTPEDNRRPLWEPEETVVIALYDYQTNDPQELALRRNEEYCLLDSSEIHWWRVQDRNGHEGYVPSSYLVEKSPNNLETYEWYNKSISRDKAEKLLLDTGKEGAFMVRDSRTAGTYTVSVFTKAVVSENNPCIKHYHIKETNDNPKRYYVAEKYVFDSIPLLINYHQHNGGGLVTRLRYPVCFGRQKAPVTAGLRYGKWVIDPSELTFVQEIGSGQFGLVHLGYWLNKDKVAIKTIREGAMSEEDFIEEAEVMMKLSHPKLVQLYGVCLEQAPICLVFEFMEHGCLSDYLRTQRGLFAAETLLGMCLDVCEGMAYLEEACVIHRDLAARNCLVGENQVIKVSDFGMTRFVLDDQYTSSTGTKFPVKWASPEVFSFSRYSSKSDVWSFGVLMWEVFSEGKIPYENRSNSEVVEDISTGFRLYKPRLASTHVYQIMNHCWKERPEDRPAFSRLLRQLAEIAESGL
Sequence of UniProt P05164 (whole entry, looked up): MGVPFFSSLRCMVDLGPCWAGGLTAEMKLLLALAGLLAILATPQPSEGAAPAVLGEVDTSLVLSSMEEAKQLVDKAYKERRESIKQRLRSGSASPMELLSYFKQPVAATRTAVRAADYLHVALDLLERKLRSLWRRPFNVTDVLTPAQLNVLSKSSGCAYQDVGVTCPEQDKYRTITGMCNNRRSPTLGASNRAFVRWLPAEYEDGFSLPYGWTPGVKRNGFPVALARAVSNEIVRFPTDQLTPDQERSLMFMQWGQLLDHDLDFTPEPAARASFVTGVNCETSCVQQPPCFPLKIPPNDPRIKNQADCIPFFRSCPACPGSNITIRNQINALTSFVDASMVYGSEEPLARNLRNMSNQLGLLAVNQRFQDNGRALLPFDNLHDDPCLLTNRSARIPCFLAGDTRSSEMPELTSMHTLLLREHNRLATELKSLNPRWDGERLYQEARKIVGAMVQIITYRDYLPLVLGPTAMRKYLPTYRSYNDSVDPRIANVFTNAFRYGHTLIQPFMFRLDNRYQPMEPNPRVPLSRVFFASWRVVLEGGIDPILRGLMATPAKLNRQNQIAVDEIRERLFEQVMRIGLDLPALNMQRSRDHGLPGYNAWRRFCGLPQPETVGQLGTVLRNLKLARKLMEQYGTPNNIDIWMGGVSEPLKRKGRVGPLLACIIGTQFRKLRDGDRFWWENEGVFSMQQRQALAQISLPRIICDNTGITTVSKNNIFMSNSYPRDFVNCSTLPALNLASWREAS

CC/C=C/C(=O)N[C@@H]1C(=O)N(CC)c2c(c(C)nn2-c2ccccc2)[C@@H]1c1ccc(F)cc1 — IC50 (DCN1-like protein 1): > 15 µM
CC[C@H](C)[C@H](NC(=O)[C@H](Cc1ccccc1)NC(=O)[C@H](CCC(=O)O)NC(=O)[C@H](CCCNC(=N)N)NC(=O)[C@H](C)NC(=O)[C@H](C)NC(=O)[C@H](CCC(N)=O)NC(=O)[C@H](CCC(=O)O)NC(=O)[C@H](CCC(=O)O)NC(=O)[C@H](CC(C)C)NC(=O)[C@H](Cc1ccc(O)cc1)NC(=O)[C@H](CO)NC(=O)[C@H](CO)NC(=O)[C@@H](NC(=O)[C@H](CC(=O)O)NC(=O)[C@H](CO)NC(=O)[C@@H](NC(=O)[C@H](Cc1ccccc1)NC(=O)[C@@H](NC(=O)CNC(=O)[C@H](CCC(=O)O)NC(=O)[C@H](C)NC(=O)CCc1cnc[nH]1)[C@@H](C)O)[C@@H](C)O)C(C)C)C(=O)N[C@@H](C)C(=O)N[C@@H](Cc1c[nH]c2ccccc12)C(=O)N[C@@H](CC(C)C)C(=O)N[C@H](C(=O)N[C@@H](CCCNC(=N)N)C(=O)NCC(=O)N[C@@H](CCCNC(=N)N)C(=O)N[C@@H](CCCCNC(=O)COCCOCCNC(=O)COCCOCCNC(=O)CC[C@H](NC(=O)CCCCCCCCCCCCCCCCC(=O)O)C(=O)O)C(=O)NCC(=O)NCC(=O)N[C@@H](CO)C(=O)N[C@@H](CCCCNC(=O)[C@H](CCCCNc1c(NCCCCCN(O)C(=O)CCC(=O)NCCCCCN(O)C(=O)CCC(=O)NCCCCCN(O)C(C)=O)c(=O)c1=O)Nc1c(NCCCCCN(O)C(=O)CCC(=O)NCCCCCN(O)C(=O)CCC(=O)NCCCCCN(O)C(C)=O)c(=O)c1=O)C(=O)O)C(C)C — EC50 (GLP1R; cAMP reporter gene, agonist, CRE luciferase; BHK; with Zr, 1% HSA): 0.1 nM
N[C@@H](CS)C(=O)O — Ki (SclA protein (Enterococcus faecalis, UniProt Q831E3, H100N)): 570 ± 60 µM
CC[C@H](C)[C@H](NC(=O)[C@H](Cc1ccccc1)NC(=O)[C@H](CCC(=O)O)NC(=O)[C@H](CCCNC(=N)N)NC(=O)[C@H](C)NC(=O)[C@H](C)NC(=O)[C@H](CCC(N)=O)NC(=O)[C@H](CCCCNc1c(NCCCCCN(O)C(=O)CCC(=O)NCCCCCN(O)C(=O)CCC(=O)NCCCCCN(O)C(C)=O)c(=O)c1=O)NC(=O)[C@H](CCC(=O)O)NC(=O)[C@H](CC(C)C)NC(=O)[C@H](Cc1ccc(O)cc1)NC(=O)[C@H](CO)NC(=O)[C@H](CO)NC(=O)[C@H](CCCCNc1c(NCCCCCN(O)C(=O)CCC(=O)NCCCCCN(O)C(=O)CCC(=O)NCCCCCN(O)C(C)=O)c(=O)c1=O)NC(=O)[C@H](CC(=O)O)NC(=O)[C@H](CO)NC(=O)[C@@H](NC(=O)[C@H](Cc1ccccc1)NC(=O)[C@@H](NC(=O)CNC(=O)[C@H](CCC(=O)O)NC(=O)[C@H](C)NC(=O)CCc1cnc[nH]1)[C@@H](C)O)[C@@H](C)O)C(=O)N[C@@H](C)C(=O)N[C@@H](Cc1c[nH]c2ccccc12)C(=O)N[C@@H](CC(C)C)C(=O)N[C@H](C(=O)N[C@@H](CCCNC(=N)N)C(=O)NCC(=O)N[C@@H](CCCNC(=N)N)C(=O)N[C@@H](CCCCNC(=O)COCCOCCNC(=O)COCCOCCNC(=O)CC[C@H](NC(=O)CCCCCCCCCCCCCCCCC(=O)O)C(=O)O)C(=O)O)C(C)C — EC50 (GLP1R; cAMP reporter gene, agonist, CRE luciferase; BHK; without Zr, 1% HSA): 1.2 nM
Cc1nn(-c2ccccc2C(F)(F)F)c2c1[C@H](c1ccc(F)cc1)[C@H](NC(=O)c1cccc(C(F)(F)F)c1)C(=O)N2 — IC50 (DCN1-like protein 1): > 15 µM
CC[C@H](C)[C@H](NC(=O)[C@H](Cc1ccccc1)NC(=O)[C@H](CCC(=O)O)NC(=O)[C@H](CCCNC(=N)N)NC(=O)[C@H](C)NC(=O)[C@H](C)NC(=O)[C@H](CCC(N)=O)NC(=O)[C@H](CCC(=O)O)NC(=O)[C@H](CCC(=O)O)NC(=O)[C@H](CC(C)C)NC(=O)[C@H](Cc1ccc(O)cc1)NC(=O)[C@H](CO)NC(=O)[C@H](CO)NC(=O)[C@@H](NC(=O)[C@H](CC(=O)O)NC(=O)[C@H](CO)NC(=O)[C@@H](NC(=O)[C@H](Cc1ccccc1)NC(=O)[C@@H](NC(=O)CNC(=O)[C@H](CCC(=O)O)NC(=O)[C@H](C)NC(=O)CCc1cnc[nH]1)[C@@H](C)O)[C@@H](C)O)C(C)C)C(=O)N[C@@H](C)C(=O)N[C@@H](Cc1c[nH]c2ccccc12)C(=O)N[C@@H](CC(C)C)C(=O)N[C@H](C(=O)N[C@@H](CCCNC(=N)N)C(=O)NCC(=O)N[C@@H](CCCNC(=N)N)C(=O)N[C@@H](CCCCNC(=O)COCCOCCNC(=O)COCCOCCNC(=O)CC[C@H](NC(=O)CCCCCCCCCCCCCCCCC(=O)O)C(=O)O)C(=O)NCC(=O)NCC(=O)N[C@@H](CO)C(=O)N[C@@H](CCSC)C(=O)N[C@H](C(=O)N[C@@H](CCCCNc1c(NCCCCCN(O)C(=O)CCC(=O)NCCCCCN(O)C(=O)CCC(=O)NCCCCCN(O)C(C)=O)c(=O)c1=O)C(=O)O)C(C)C)C(C)C — EC50 (GLP1R; cAMP reporter gene, agonist, CRE luciferase; BHK; with Zr, 0% HSA): 0.0026 nM
COc1cc2c(Oc3ccc4[nH]c(C)cc4c3F)ccnc2cc1OCC1(N)CC1 — grade 1 or 2 sinus bradycardia (paediatric recurrent refractory sarcoma; concentration not given, whole group): 5.9%
C[C@@H](O)[C@@H](CO)NC(=O)[C@@H](CCCNC(=N)N)NC(=O)[C@@H]1CCCN1C(=O)[C@@H]1CSSC[C@H](NC(=O)[C@H](Cc2ccccc2)NC(=O)CN2CCN(CC(=O)O)CCN(CC(=O)O)CCN(CC(=O)O)CC2)C(=O)N[C@@H](Cc2ccc(O)cc2)C(=O)N[C@@H](Cc2ccccc2)C(=O)N[C@@H](CCC(N)=O)C(=O)N[C@@H](CC(N)=O)C(=O)N1 [gallium-68 labelled] — tissue uptake (healthy Wistar rat, stomach; intravenous, 8 MBq, 60 min, individual animals): 0.25 %ID/g
CC(=O)NCN1C(=O)[C@@H](NC(=O)c2cccc(C(F)(F)F)c2)[C@@H](c2ccc(F)cc2)c2c(C)nn(-c3ccccc3)c21 — IC50 (DCN1-like protein 1): > 15 µM
COc1cc(Nc2ncc(F)c(Nc3ccc4c(n3)NC(=O)C(C)(C)O4)n2)cc(OC)c1OC — IC50 (Myeloperoxidase (MPO, Homo sapiens, UniProt P05164)): > 10 µM
CC[C@H](C)[C@H](NC(=O)[C@H](Cc1ccccc1)NC(=O)[C@H](CCC(=O)O)NC(=O)[C@H](CCCNC(=N)N)NC(=O)[C@H](C)NC(=O)[C@H](C)NC(=O)[C@H](CCC(N)=O)NC(=O)[C@H](CCC(=O)O)NC(=O)[C@H](CCC(=O)O)NC(=O)[C@H](CC(C)C)NC(=O)[C@H](Cc1ccc(O)cc1)NC(=O)[C@H](CO)NC(=O)[C@H](CO)NC(=O)[C@@H](NC(=O)[C@H](CC(=O)O)NC(=O)[C@H](CO)NC(=O)[C@@H](NC(=O)[C@H](Cc1ccccc1)NC(=O)[C@@H](NC(=O)CNC(=O)[C@H](CCC(=O)O)NC(=O)[C@H](C)NC(=O)CCc1c[nH]cn1)[C@@H](C)O)[C@@H](C)O)C(C)C)C(=O)N[C@@H](C)C(=O)N[C@@H](Cc1c[nH]c2ccccc12)C(=O)N[C@@H](CC(C)C)C(=O)N[C@H](C(=O)N[C@@H](CCCNC(=N)N)C(=O)NCC(=O)N[C@@H](CCCNC(=N)N)C(=O)N[C@@H](CCCCNC(=O)COCCOCCNC(=O)COCCOCCNC(=O)CC[C@H](NC(=O)CCCCCCCCCCCCCCCCC(=O)O)C(=O)O)C(=O)NCC(=O)NCC(=O)N[C@@H](CO)C(=O)N[C@@H](CCCCNc1c(NCCCCCN(O)C(=O)CCC(=O)NCCCCCN(O)C(=O)CCC(=O)NCCCCCN(O)C(C)=O)c(=O)c1=O)C(=O)O)C(C)C [zirconium-89 labelled] — tissue uptake (rat, lung; iv, 3 nmol/kg, 4 h, ex vivo): 1.91 %ID/g
C[C@H]1CN(c2n[nH]c3nc(N[C@H]4CC[C@H](NS(=O)(=O)CCC(F)(F)F)CC4)ncc23)CCO1 — IC50 (Methyl-CpG-binding domain protein 3 (MBD3, Homo sapiens, UniProt O95983); biochemical): ≥ 20 µM
CC(C)C[C@H](NC(=O)[C@H](Cc1ccc(OP(=O)(O)O)cc1)NC(=O)[C@H](CCC(=O)O)NC(=O)[C@@H]1CCCN1C(=O)[C@H](CC(N)=O)NC(=O)CNC(=O)[C@@H](NC(=O)[C@H](C)NC(=O)[C@@H](NC(=O)[C@H](CO)NC(=O)[C@H](Cc1c[nH]cn1)NC(=O)c1ccc2c(c1)C(=O)OC21c2ccc(N(C)C)cc2Oc2cc(N(C)C)ccc21)[C@@H](C)O)C(C)C)C(=O)N[C@@H](CC(N)=O)C(=O)N[C@H](C(=O)N[C@H](C(=O)N[C@@H](CCC(N)=O)C(=O)N1CCC[C@H]1C(=O)N[C@H](C(=O)N[C@@H](CC(=O)O)C(=O)O)[C@@H](C)O)C(C)C)[C@@H](C)O — Kd (Tyrosine-protein kinase ITK/TSK, SH2 domain (ITK, Homo sapiens, UniProt Q08881); binding): 1760 nM
CO[C@H]1C[C@@H]2CC[C@@H](C)[C@@](O)(O2)C(=O)C(=O)N2CCCC[C@H]2C(=O)O[C@H]([C@H](C)C[C@@H]2CC[C@@H](OC(=O)NCCOCCOCCOCCOCCOCCOCCOCCOCCC(=O)N3CCc4cc(Cn5nc(-c6ccc7oc(N)nc7c6)c6c(N)ncnc65)ccc4C3)[C@H](OC)C2)C[C@@H](O)[C@H](C)/C=C(\C)[C@@H](O)[C@@H](OC)C(=O)[C@H](C)C[C@H](C)/C=C/C=C/C=C/1C — TRAE incidence (phase 1 dose escalation, measured: decreased appetite; advanced solid tumour patients; intravenous, 10 mg weekly, any grade): 12.5%
CC[C@H](C)[C@@H]1NC(=O)[C@@H]2CCCN2C(=O)[C@H](CC(C)C)NC(=O)[C@H](CC(C)C)NC(=O)CNC(=O)[C@@H](NC(=O)[C@@H](NC(=O)[C@H](CC(=O)O)NC(=O)CNC(=O)[C@@H](NC(=O)[C@H](C)NC(=O)CNC(=O)[C@H](CCCCN)NC(=O)[C@H](CC(C)C)NC(=O)[C@H](CC(C)C)NC(=O)[C@H](CCCCN)NC(=O)CNC(=O)[C@@H](NC(=O)[C@@H](N)CC(C)C)C(C)C)C(C)C)C(C)C)CSSC[C@@H](C(=O)O)NC1=O — log2 fold change (RNA-seq, measured: Rd3; mouse, traumatic brain injury model, frontal cortex and hippocampus; dose not given; baseline: TBI alone): -2.26

Excerpt of the above:
CC[C@H](C)[C@H](NC(=O)[C@H](Cc1ccccc1)NC(=O)[C@H](CCC(=O)O)NC(=O)[C@H](CCCNC(=N)N)NC(=O)[C@H](C)NC(=O)[C@H](C)NC(=O)[C@H](CCC(N)=O)NC(=O)[C@H](CCC(=O)O)NC(=O)[C@H](CCC(=O)O)NC(=O)[C@H](CC(C)C)NC(=O)[C@H](Cc1ccc(O)cc1)NC(=O)[C@H](CO)NC(=O)[C@H](CO)NC(=O)[C@@H](NC(=O)[C@H](CC(=O)O)NC(=O)[C@H](CO)NC(=O)[C@@H](NC(=O)[C@H](Cc1ccccc1)NC(=O)[C@@H](NC(=O)CNC(=O)[C@H](CCC(=O)O)NC(=O)[C@H](C)NC(=O)CCc1cnc[nH]1)[C@@H](C)O)[C@@H](C)O)C(C)C)C(=O)N[C@@H](C)C(=O)N[C@@H](Cc1c[nH]c2ccccc12)C(=O)N[C@@H](CC(C)C)C(=O)N[C@H](C(=O)N[C@@H](CCCNC(=N)N)C(=O)NCC(=O)N[C@@H](CCCNC(=N)N)C(=O)N[C@@H](CCCCNC(=O)COCCOCCNC(=O)COCCOCCNC(=O)CC[C@H](NC(=O)CCCCCCCCCCCCCCCCC(=O)O)C(=O)O)C(=O)NCC(=O)NCC(=O)N[C@@H](CO)C(=O)N[C@@H](CCSC)C(=O)N[C@H](C(=O)N[C@@H](CCCCNc1c(NCCCCCN(O)C(=O)CCC(=O)NCCCCCN(O)C(=O)CCC(=O)NCCCCCN(O)C(C)=O)c(=O)c1=O)C(=O)O)C(C)C)C(C)C — EC50 (GLP1R; cAMP reporter gene, agonist, CRE luciferase; BHK; with Zr, 0% HSA): 0.0026 nM
C[C@H]1CN(c2n[nH]c3nc(N[C@H]4CC[C@H](NS(=O)(=O)CCC(F)(F)F)CC4)ncc23)CCO1 — IC50 (Methyl-CpG-binding domain protein 3 (MBD3, Homo sapiens, UniProt O95983); biochemical): ≥ 20 µM
